Published values of several laboratories.

For `COC1CN([C@H]2CC[C@H]([C@@]3(C)Oc4c(Cl)cc(C(=O)NCc5c(SC)cc(C)[nH]c5=O)c(C)c4O3)CC2)C1`, “log2 fold change” read 1.08 (RNA-seq, measured: PLD2 mouse homolog; mouse, HT-1376 xenograft, whole blood; dose not given; baseline: vehicle).
`CN1CCC[C@]1(C)/C=C/S(=O)(=O)NC(=O)Nc1c2c(cc3c1CCC3)CCC2` has an IL-18 inhibition of 92.9% (human, whole blood ex vivo; 100 mg twice daily, day 1, 6 h, multiple ascending dose, with: LPS and ATP).
Under “biofilm mass reduction”, `N=C(N)NCCC[C@@H]1NC(=O)[C@H](CCCNC(=N)N)NC(=O)[C@@H](CCCNC(=N)N)NC(=O)[C@@H](CCCNC(=N)N)NC(=O)[C@@H](C(c2ccccc2)c2ccccc2)NC(=O)[C@H](Cc2c[nH]c3ccccc23)NC(=O)[C@@H](C(c2ccccc2)c2ccccc2)NC1=O` is recorded as 70% (Candida albicans; ATCC 60193; 2 x MIC, 24 h, preformed biofilm).
Under “log2 fold change”, `Cc1ncsc1-c1ccc(C(C)NC(=O)C2CC(O)CN2C(=O)C(NC(=O)CCCCCCCCCCN2CCCC(Nc3ncc(Cl)c(Nc4ccccc4S(=O)(=O)C(C)C)n3)C2)C(C)(C)C)cc1` (centres unmarked) is recorded as -1.67 (22Rv1; RNA-seq, measured: ZNF609 mRNA; concentration not given; baseline: DMSO).
`CN1CCCNC(=O)c2cccc(c2)C(=O)NCCCN(C)CCCNc2cccc3c2C(=O)c2cccc(c2C3=O)NCCC1`: “log2 fold change” -1.48 (SAS; RNA-Seq, measured: GOLGB1 mRNA; 1 µM, 6 h; baseline: untreated cells).
For `C=CC(=O)Nc1cccc(Cn2ncc3cnc(Nc4cnn(CCOC)c4)nc32)c1`, “percent of control” read 100% (PAK4 human; binding, KINOMEscan; 100 nM; lower = stronger binding).
With `CCN(CC)CC(=O)Nc1cccc(-n2cc(-c3ccc4ccc(-c5cn(-c6cccc(NC(=O)CN(CC)CC)c6)nn5)cc4c3)nn2)c1` the fold regulation was 1.2 fold (RCC4; PCR angiogenesis array, measured: VEGFB; 5 x IC50, 2 h, normoxia; baseline: untreated).
With `COc1ccccc1-c1ccncc1C(=O)Nc1nnc(OCc2ccc(Cl)cc2)s1` the colony survival was 61.6% (Brca1 Δ11/Δ11 MEF sgGFP, Mus musculus; 5 µM, mean of runs 2, 3; baseline: 0 µM).
For `Nc1ncc(-c2cc(-c3cnn(CC(F)(F)F)c3)ncc2F)nc1C(=O)NC1CNCC(F)C1` (centres unmarked), the remaining binding was 100% (BUB1; KINOMEscan; 1 µM; baseline: DMSO control).
`c1ccc(-c2n[nH]cc2-c2ccnc3ccccc23)nc1` — result for “log2 fold change”: -0.13 (orf19.6492 Candida albicans; kinase binding, MIB/MS competition; Candida albicans lysate; 10 µM; baseline: DMSO).
For `Cn1ncc2cc(-c3cncc(Cl)c3N3CCC4(CCNC4=O)CC3)ccc21`, “log2 fold change” read 2.29 (LS174T; gene expression, microarray, measured: CBWD1 mRNA; concentration not given, 24 h; baseline: untreated cells).
`CNS(=O)(=O)Nc1nccc(Cc2c(C)c3ccc(Oc4ncccc4F)cc3oc2=O)c1F` has an IC50 of over 1 µM (HT-1376; cell viability; 7 days).
`C=C(NC(=O)c1csc(-c2nc3c(cc2O)-c2nc(cs2)C(=O)NC(C(C)O)C(=O)NC(=C(C)OC)c2nc(cs2)C(=O)NC2c4nc(cs4)C(=O)NC(COC(=O)c4c5c6c(cccc6n4O)COC(=O)C(OC4CC(C)(O)C(N(C)C)C(C)O4)C2OC5)c2nc-3cs2)n1)C(N)=O` (centres unmarked) — result for “lung bacterial load”: 3.89 log10 CFU/lung (Streptococcus pneumoniae; -25, immunocompromised mice, lung; 16 mg/kg/day thrice daily, 24 h post-dose).
With `C=CC(=O)N1[C@@H](c2ccc3c(c2)OCO3)c2[nH]c3ccccc3c2C[C@H]1C(=O)N1CCN(C)CC1` the relative co-enrichment was 123% (human cyclin E1 N112C-3xFLAG:CDK2; co-IP with TMT proteomics, measured: ATAD3A; concentration not given, Q9NVI7; baseline: wild type DMSO).
